Measured values collected from several papers.
Numbers after ± are the reported error.

For CCCCCCCCCCCCCCCC(=O)N[C@@H](CCC(=O)NCCOCCOCCC(=O)NCCOCCOCCC(=O)NCCCC[C@H](NC(=O)[C@H](CC(=O)O)NC(=O)[C@H](CC(C)C)NC(=O)[C@H](Cc1ccc(O)cc1)NC(=O)[C@H](CCCCN)NC(=O)[C@H](CO)NC(=O)[C@H](Cc1ccc(O)cc1)NC(=O)[C@H](CC(=O)O)NC(=O)[C@H](CO)NC(=O)[C@@H](NC(=O)[C@H](Cc1ccccc1)NC(=O)[C@@H](NC(=O)CNC(=O)[C@H](CCC(N)=O)NC(=O)[C@@H](CO)NC(=O)[C@@H](N)Cc1c[nH]cn1)[C@@H](C)O)[C@@H](C)O)C(=O)N[C@@H](CCCNC(=N)N)C(=O)N[C@@H](CCCNC(=N)N)C(=O)N[C@@H](C)C(=O)N[C@@H](CCC(N)=O)C(=O)N[C@@H](CC(=O)O)C(=O)N[C@@H](Cc1ccccc1)C(=O)N[C@H](C(=O)N[C@@H](CCC(N)=O)C(=O)N[C@@H](Cc1c[nH]c2ccccc12)C(=O)N[C@@H](CC(C)C)C(=O)N[C@@H](CC(C)C)C(=O)N[C@@H](CC(N)=O)C(=O)N[C@H](C(=O)NCC(=O)NCC(=O)N1CCC[C@H]1C(=O)N[C@@H](CO)C(=O)N[C@@H](CO)C(=O)NCC(=O)N[C@@H](C)C(=O)N1CCC[C@H]1C(=O)N1CCC[C@H]1C(=O)N1CCC[C@H]1C(=O)N[C@@H](CO)C(N)=O)[C@@H](C)O)C(C)C)C(=O)O, “serum enzyme activity” read 78.8 ± 10.2 U/L (measured: ALP; Sprague-Dawley rat, female; subcutaneous, 100 µg/kg once daily, 14 days).
CC[C@H](C)[C@H](NC(=O)[C@H](CCCN)NC(=O)[C@H](CC(=O)O)NC(=O)[C@H](CC(C)C)NC(=O)C(C)(CC(C)C)NC(=O)[C@@H](NC(=O)[C@H](CO)NC(=O)[C@H](Cc1ccc(O)cc1)NC(=O)[C@H](CC(=O)O)NC(=O)[C@H](CO)NC(=O)[C@@H](NC(=O)[C@H](Cc1ccccc1)NC(=O)[C@@H](NC(=O)CNC(=O)[C@H](CCC(=O)O)NC(=O)C(C)(C)NC(=O)[C@@H](N)Cc1ccc(O)cc1)[C@@H](C)O)[C@@H](C)CC)[C@@H](C)CC)C(=O)N[C@@H](Cc1c[nH]cn1)C(=O)N[C@@H](CCC(N)=O)C(=O)NC(C)(C)C(=O)N[C@@H](CC(=O)O)C(=O)N[C@@H](Cc1ccccc1)C(=O)N[C@H](C(=O)N[C@@H](CCC(=O)O)C(=O)N[C@@H](Cc1ccc(O)cc1)C(=O)N[C@@H](CCCCNC(=O)COCCOCCNC(=O)COCCOCCNC(=O)CC[C@H](NC(=O)CCCCCCCCCCCCCCCCCCC(=O)O)C(=O)O)C(=O)N[C@@H](CC(C)C)C(=O)N[C@@H](CCC(=O)O)C(=O)NCC(=O)NCC(=O)N1CCC[C@H]1C(=O)N[C@@H](CO)C(=O)N[C@@H](CO)C(=O)NCC(=O)N[C@@H](C)C(=O)N1CCC[C@H]1C(=O)N1CCC[C@H]1C(=O)N1CCC[C@H]1C(=O)N[C@@H](CO)C(N)=O)C(C)C (some centres unmarked) gave a Cmax of 2910 ng/mL (human, type 2 diabetes; subcutaneous, 25 mg single dose, geometric mean).
CC[C@H](C)C(=O)N1CCC(NC(=O)Nc2ccc(OC(F)(F)F)c(F)c2)CC1: “subjects with COVID-19 TEAE” 16.7% (healthy volunteers; oral, 24 mg single dose).
CC[C@H](C)[C@H](NC(=O)[C@H](CCCCN)NC(=O)[C@H](Cc1ccc(O)cc1)NC(=O)[C@H](CCC(N)=O)NC(=O)[C@H](Cc1c[nH]cn1)NC(=O)[C@@H](NC(=O)[C@H](Cc1ccccc1)NC(=O)[C@H](Cc1c[nH]cn1)NC(=O)[C@@H](NC(=O)[C@@H](NC(=O)CNC(=O)[C@H](CCCNC(=N)N)NC(=O)[C@H](Cc1c[nH]c2ccccc12)NC(=O)[C@H](CC(C)C)NC(=O)[C@H](CO)NC(=O)[C@H](CCC(=O)O)NC(=O)[C@H](CC(C)C)NC(=O)[C@H](CCC(=O)O)NC(=O)[C@H](CC(N)=O)NC(=O)[C@H](CC(C)C)NC(=O)[C@H](CC(=O)O)NC(=O)[C@H](CO)NC(=O)[C@H](CCC(=O)O)NC(=O)[C@@H](NC(=O)[C@H](CC(C)C)NC(=O)[C@H](CCC(N)=O)NC(=O)[C@H](CCC(=O)O)NC(=O)[C@H](CCC(=O)O)NC(=O)[C@H](CC(C)C)NC(=O)[C@@H]1CCCN1C(=O)[C@@H](N)Cc1ccccc1)[C@@H](C)O)[C@@H](C)O)[C@@H](C)O)C(C)C)C(=O)N[C@@H](CCSC)C(=O)N1CCC[C@H]1C(=O)N[C@@H](Cc1ccccc1)C(=O)N[C@@H](CCCNC(=N)N)C(=O)N[C@@H](CCCCN)C(=O)N[C@@H](CC(C)C)C(=O)N[C@H](C(=O)N[C@@H](Cc1ccccc1)C(=O)N[C@@H](CCCCN)C(=O)N[C@@H](CCCNC(=N)N)C(=O)N[C@@H](CCCNC(=N)N)C(=O)N[C@@H](CCCCN)C(=O)N[C@@H](CC(N)=O)C(N)=O)C(C)C — result for viability: “no effect” (HEK293T; WST-8; up to 25 µg/mL, 24 h; baseline: water).
CC[C@H](C)[C@H](NC(=O)[C@H](CO)NC(=O)[C@H](Cc1ccc(O)cc1)NC(=O)[C@H](CC(=O)O)NC(=O)[C@H](CO)NC(=O)[C@@H](NC(=O)[C@H](Cc1ccccc1)NC(=O)[C@@H](NC(=O)CNC(=O)[C@H](CCC(=O)O)NC(=O)[C@@H](C)NC(=O)[C@@H](N)Cc1ccc(O)cc1)[C@@H](C)O)[C@@H](C)CC)C(=O)N[C@@H](C)C(=O)N[C@@H](CCSC)C(=O)N[C@@H](CC(=O)O)C(=O)N[C@@H](CCCCN)C(=O)N[C@H](C(=O)N[C@@H](Cc1c[nH]cn1)C(=O)N[C@@H](CCC(N)=O)C(=O)N[C@@H](CCC(N)=O)C(=O)N[C@@H](CC(=O)O)C(=O)N[C@@H](Cc1ccccc1)C(=O)N[C@H](C(=O)N[C@@H](CC(N)=O)C(=O)N[C@@H](Cc1c[nH]c2ccccc12)C(=O)N[C@@H](CC(C)C)C(=O)N[C@@H](CC(C)C)C(=O)N[C@@H](C)C(=O)N[C@@H](CCC(N)=O)C(=O)N[C@@H](CCCCN)C(=O)N1CCC[C@H]1C(=O)N[C@@H](CO)C(=O)N[C@@H](CO)C(=O)NCC(=O)N[C@@H](C)C(=O)N1CCC[C@H]1C(=O)N1CCC[C@H]1C(=O)N1CCC[C@H]1C(=O)N[C@@H](CO)C(N)=O)C(C)C)[C@@H](C)CC has a PAI-1 of 3.1 ± 0.2 ng/mL (HF-STZ diabetic mouse, plasma; continuous infusion, 100 nmol/kg/day, 4 weeks).
For O=c1cc(-c2ccccc2)oc2c(Br)c(O)c(O)c(O)c12, the Cmax was 10000 ± 5420 ng/mL (chikungunya virus; C57BL/6 mouse, CHIKV-infected, plasma; oral, 250 mg/kg twice daily, 2 h after dose 5).
CCCCCCCCCCCCCCCC(=O)N[C@@H](CCC(=O)NCCCC[C@H](NC(=O)[C@H](CC(=O)O)NC(=O)[C@H](CO)NC(=O)[C@@H](NC(=O)[C@H](Cc1ccccc1)NC(=O)[C@@H](NC(=O)CNC(=O)[C@H](CCC(N)=O)NC(=O)[C@H](C)NC(=O)[C@@H](Cc1ccc(O)cc1)NC(C)=O)[C@@H](C)O)[C@@H](C)O)C(=O)N[C@@H](CO)C(=O)N[C@@H](CCCCN)C(=O)N[C@@H](Cc1ccc(O)cc1)C(=O)N[C@@H](CC(C)C)C(=O)N[C@@H](CC(=O)O)C(=O)N[C@@H](CCC(=O)O)C(=O)N[C@@H](CCCNC(=N)N)C(=O)N[C@@H](C)C(=O)N[C@@H](C)C(=O)N[C@@H](CCC(N)=O)C(=O)N[C@@H](CC(=O)O)C(=O)N[C@@H](Cc1ccccc1)C(=O)N[C@H](C(=O)N[C@@H](CCC(N)=O)C(=O)N[C@@H](Cc1c[nH]c2ccccc12)C(=O)N[C@@H](CC(C)C)C(=O)N[C@@H](CC(C)C)C(=O)N[C@@H](CCC(=O)O)C(=O)NCC(=O)NCC(=O)N1CCC[C@H]1C(=O)N[C@@H](CO)C(=O)N[C@@H](CO)C(=O)NCC(=O)N[C@@H](C)C(=O)N1CCC[C@H]1C(=O)N1CCC[C@H]1C(=O)N1CCC[C@H]1C(=O)N[C@@H](CO)C(N)=O)C(C)C)C(=O)O — result for “change in heart rate”: 7 to 16 beats/min (12-lead ECG; human; multiple ascending doses, 10 weeks; baseline: baseline).
With Cc1oc2nc1C(=O)N[C@](C)(C(=O)NCCc1ccccc1)c1nc(c(C)o1)C(=O)N[C@](C)(C(=O)NCCc1ccccc1)c1nc(c(C)o1)C(=O)N[C@]2(C)C(=O)NCCc1ccccc1 the selectivity index was 22.6 (SARS-CoV-2; Vero E6, NRC-03-nhCoV; baseline: CC50 over IC50).

For quick reference, copied from above:
For O=c1cc(-c2ccccc2)oc2c(Br)c(O)c(O)c(O)c12, the Cmax was 10000 ± 5420 ng/mL (chikungunya virus; C57BL/6 mouse, CHIKV-infected, plasma; oral, 250 mg/kg twice daily, 2 h after dose 5).
